Measured values gathered from unrelated publications.
Each line is one published result; not all experiments were run side by side. ± marks the error that the study gave.

SMILES | test | test system | conditions | how to read | endpoint | result
CC[C@H](C)[C@H](NC(=O)[C@H](CC(=O)O)NC(=O)[C@H](CO)NC(=O)[C@H](CCC(N)=O)NC(=O)[C@H](C)NC(=O)[C@H](CC(=O)O)NC(=O)[C@H](CCC(=O)O)NC(=O)[C@H](Cc1c[nH]cn1)NC(=O)[C@H](Cc1ccc(O)cc1)NC(=O)[C@H](C)NC(=O)[C@H](CC(=O)O)NC(=O)[C@H](CCC(=O)O)NC(=O)[C@H](Cc1c[nH]cn1)NC(=O)[C@H](Cc1ccc(O)cc1)NC(=O)[C@H](C)NC(=O)[C@H](CC(=O)O)NC(=O)[C@H](CCC(=O)O)NC(=O)[C@H](Cc1c[nH]cn1)NC(=O)[C@H](Cc1ccc(O)cc1)NC(=O)[C@H](C)NC(=O)[C@H](CC(=O)O)NC(=O)[C@H](CCC(=O)O)NC(=O)[C@H](Cc1c[nH]cn1)NC(=O)[C@H](Cc1ccc(O)cc1)NC(=O)[C@H](C)NC(=O)[C@H](CC(=O)O)NC(=O)[C@H](CCC(=O)O)NC(=O)[C@H](Cc1c[nH]cn1)NC(=O)[C@@H](N)Cc1ccc(O)cc1)C(=O)N[C@H](C(=O)N[C@@H](C)C(=O)N[C@@H](Cc1c[nH]cn1)C(=O)N[C@@H](CC(C)C)C(=O)N[C@@H](CC(C)C)C(=O)O)C(C)C |  | normal mouse, blood | dose not given |  | EO share of white cells | 2.7 ± 0.4%
CC[C@H](C)[C@H](NC(=O)CNC(=O)[C@H](Cc1c[nH]cn1)NC(=O)[C@H](CC(C)C)NC(=O)CNC(=O)[C@H](CC(C)C)NC(=O)[C@H](CCCCN)NC(=O)[C@H](Cc1ccccc1)NC(=O)[C@H](CC(C)C)NC(=O)[C@H](CCCCN)NC(=O)CNC(=O)[C@H](Cc1c[nH]c2ccccc12)NC(=O)[C@H](Cc1ccccc1)NC(=O)CN)C(=O)NCC(=O)N[C@@H](CC(C)C)C(=O)N[C@@H](CC(C)C)C(=O)N[C@@H](Cc1c[nH]cn1)C(=O)N[C@@H](CC(C)C)C(=O)N[C@@H](Cc1c[nH]cn1)C(=O)N[C@@H](CC(C)C)C(N)=O |  | zebrafish embryos | 1 h, 4, 28, 52 hpf |  | acute toxic concentration | 1 to 5 µg/mL
CSCC[C@@H]1NC(=O)[C@@H]2CSSC[C@H](NC(=O)[C@H](CO)NC(=O)[C@H](C)N)C(=O)N[C@@H](CCCNC(=N)N)C(=O)N[C@@H]([C@@H](C)O)C(=O)N3CCC[C@H]3C(=O)N[C@@H](CCCCN)C(=O)N[C@@H](CC(=O)O)C(=O)N[C@H]3CSSC[C@H](NC(=O)[C@H](CCCCN)NC(=O)[C@H](CCCNC(=N)N)NC(=O)[C@H](CC(N)=O)NC1=O)C(=O)N[C@@H](CCCCN)C(=O)N[C@H]1CSSC[C@H](NC(=O)[C@@H]4CCCN4C(=O)[C@H](CC(=O)O)NC(=O)[C@H](C)NC3=O)C(=O)N[C@@H](C)C(=O)N[C@@H](CCCCN)C(=O)N[C@@H](CCC(=O)O)C(=O)N[C@@H]([C@@H](C)O)C(=O)NCC(=O)N[C@@H](CSSC[C@@H](C(N)=O)NC(=O)[C@H](CCCNC(=N)N)NC(=O)[C@H](CC(N)=O)NC1=O)C(=O)N1CCC[C@H]1C(=O)N[C@@H](Cc1ccc(O)cc1)C(=O)NCC(=O)N[C@@H](CCCCN)C(=O)N2 |  | DA rat pristane-induced arthritis, serum | subcutaneous, 0.1 mg/kg once weekly, 21 days |  | Sodium | 144 mmol/L
CCN(Cc1ccccc1)C(=O)CCc1nc(CN2CCN(C(=O)Cc3ccc(OC)c(OC)c3)CC2)no1 |  | rat, brain | intravenous, 1 mg/kg, 1 h |  | concentration | 2.4 ng/g
COc1cc2ccnc(Cc3ccc(O[11CH3])c(OC)c3)c2cc1OC |  | Sprague-Dawley rat, brain stem | intravenous, 5 min |  | tissue uptake | 0.183 ± 0.028 %ID/g
CC[C@@H](C)[C@H](NC(=O)[C@H](C)NC(=O)[C@H](CCCCN)NC(=O)[C@H](CC(C)C)NC(=O)[C@H](C)NC(=O)[C@@H](NC(=O)[C@H](Cc1c[nH]cn1)NC(=O)[C@H](CC(C)C)NC(=O)[C@@H](NC(=O)[C@@H](NC(=O)[C@H](CCCCN)NC(=O)[C@H](CCCCN)NC(=O)[C@H](C)NC(=O)[C@H](CO)NC(=O)[C@H](CCCCN)NC(=O)[C@H](Cc1ccccc1)NC(=O)[C@@H](NC(=O)[C@H](CCCCN)NC(=O)[C@H](CC(C)C)NC(=O)[C@H](Cc1ccccc1)NC(=O)[C@H](CO)NC(=O)[C@H](CCCCN)NC(=O)[C@H](Cc1c[nH]c2ccccc12)NC(=O)[C@H](CCCCN)NC(C)=O)[C@@H](C)O)[C@@H](C)O)C(C)C)[C@@H](C)O)C(=O)N[C@@H](CO)C(=O)N[C@@H](CO)C(N)=O | circular dichroism at 222 nm | buffer with 50% TFE | 75 µM, 30 °C |  | mean residue ellipticity | -24600 deg cm² dmol⁻¹
CC[C@@H]1C[C@]1(NC(=O)[C@@H]1C[C@@]2(CN1C(=O)[C@@H](NC(=O)[C@@H](NC(=O)[C@@H]1CCCCN1C(C)C)C1CCCCC1)C(C)(C)C)C(C)(C)C21CCC1)C(=O)NS(=O)(=O)N1CCCC1 |  | human | oral, 50 mg, added: ritonavir 100 mg |  | subjects with abdominal pain | 0%
CC1N=C(c2ccccc2F)c2cc(Br)ccc2-n2cnc(C(=O)OC3OC(CO)C(O)C(O)C3O)c21 (stereo not shown) | LC-MS/MS | Swiss Webster mouse, female, urine | oral, 750 µg parent drug, 0 to 24 h |  | cumulative excretion | 2.5 ± 0.1%
COc1cc(NC(=O)C(=O)c2c(C)n(Cc3ccc(Cl)cc3)c3ccc(C)cc23)ccn1 |  | cynomolgus monkey, male and female, plasma | oral, 10 mg/kg, range of sex means |  | terminal half-life | 17 to 20 h
CCNc1cc2[o+]c3cc(NCC)c(C)cc3c(-c3ccccc3C(=O)OCCOCC[18F])c2cc1C |  | rat, heart | 120 min |  | tissue uptake | 1.77 ± 0.15 %ID/g
CCCCCCCC(=O)NC[C@H](NC(=O)[C@H](CO)NC(=O)CN)C(=O)N[C@@H](Cc1ccccc1)C(=O)N[C@@H](CC(C)C)C(=O)N[C@@H](CO)C(=O)N1CCC[C@H]1C(=O)N[C@@H](CCC(=O)O)C(=O)N[C@@H](Cc1c[nH]cn1)C(=O)N[C@@H](CCC(N)=O)C(=O)N[C@@H](CCCNC(=N)N)C(=O)N[C@H](C(=O)N[C@@H](CCC(N)=O)C(=O)N[C@H](C(=O)N[C@@H](CCCNC(=N)N)C(=O)N1CCC[C@H]1C(=O)N1CCC[C@H]1C(=O)N[C@@H](Cc1c[nH]cn1)C(=O)N[C@@H](CCCCN)C(=O)N[C@@H](C)C(=O)N1CCC[C@H]1C(=O)N[C@@H](Cc1c[nH]cn1)C(=O)N[C@H](C(=O)N[C@H](C(=O)O)C(C)C)C(C)C)C(C)C)C(C)C |  | mouse, plasma | intraperitoneal, 1.2 mg/kg |  | Tmax | 5 min
CC(C)[C@H](N)C(=O)N[C@@H](CC(N)=O)C(=O)N1CCC[C@H]1C(=O)N[C@@H](CCC(=O)O)C(=O)O |  | C57BL/6 mice, serum | oral, 10 or 50 mg/kg/day, 2 weeks | relative to: control group | serum triglycerides and urea nitrogen | decreased
CC(C)C[C@@H](N)C(=O)NCC(=O)N[C@H](C)C(=O)N[C@H](CO)C(=O)N[C@H](Cc1c[nH]c2ccccc12)C(=O)N[C@H](Cc1c[nH]cn1)C(=O)N[C@H](CCCNC(=N)N)C(=O)N1CCC[C@@H]1C(=O)N[C@H](CC(=O)O)C(=O)N[C@H](CCCCN)C(=O)N[C@H](CS)C(=O)N[C@H](CS)C(=O)N[C@H](CC(C)C)C(=O)NCC(=O)N[C@H](Cc1ccc(O)cc1)C(=O)N[C@H](CCC(N)=O)C(=O)N[C@H](CCCCN)C(=O)N[C@H](CCCNC(=N)N)C(=O)N1CCC[C@@H]1C(=O)N[C@H](CC(C)C)C(=O)N1CCC[C@@H]1C(N)=O | LC-MS/MS | rat plasma | 25 ng/mL, 12 h, 25 °C, room temperature before extraction |  | measured concentration | 24.4 ± 2.7 ng/mL
CC[C@H](C)C(=O)N1CCC(NC(=O)Nc2ccc(OC(F)(F)F)c(F)c2)CC1 |  | healthy volunteers | oral, 16 mg single dose, device site dermatitis |  | subjects with dermatitis TEAE | 66.7%
CCCCCCCCCCCCC(=O)O.O=C1CCCC2C3CCCN4CCCC(CN12)C34 (stereo not shown) |  | water | concentration not given, 303.15 K |  | critical micelle concentration | 0.00248 mol/kg
O=c1oc2c(O)c(O)ccc2c2cc(O)c(O)cc12 | potentiometric titration | water, extrapolated from methanol/water | 25 °C |  | pKa2 | 8.43
O=C([O][Ti+2][O]C(=O)c1ccc([P+]([Au-][Cl])(c2ccccc2)c2ccccc2)cc1)c1ccc([P+]([Au-][Cl])(c2ccccc2)c2ccccc2)cc1.c1cc[cH-]c1.c1cc[cH-]c1 | general toxicity | mouse | subcutaneous |  | MTD | 10 mg/kg/day
CCCCCCCCCCCC(=O)C(C)C(=O)N1CCC[C@H]1C(=O)NC(C)(C)C(=O)NC(C)(C)C(=O)NC(C)(C)C(=O)N[C@](C)(CC)C(=O)NCCC(=O)N[C@@H](C)C(=O)N[C@](C)(CC)C(=O)N[C@@H](C)C(=O)N[C@@H](CC(C)C)C(=O)N[C@](C)(CC)C(=O)NCCC(=O)N[C@@H](C)C(=O)N[C@](C)(CC)C(=O)NCCC(=O)N[C@@H](C)C(=O)NC(C)(C)C(=O)NC(C)(C)C(=O)NC(C)(C)C(=O)N[C@@H](C)C(=O)N[C@@H](CC(=O)O)C(=O)O (stereo partly shown) | LC-MS | 50% pooled human serum | 40 µM, 12 h, pH 7.5, 37 °C |  | remaining compound | ~27%
COC(=O)C[C@](O)(CCCC(C)(C)OC(C)=O)C(=O)O[C@@H]1C(OC)=C[C@]23CCCN2CCc2cc4c(cc2[C@H]13)OCO4 |  | CD1 mouse, spleen | oral, 1 mg/kg, 8 h |  | tissue concentration | 9.22 ng/mL
CCCCCCCCCCCCCCCC(=O)N=C(N)NCCC[C@H](NC(=O)[C@H](CC(C)C)NC(=O)[C@@H](CC(C)C)NC(=O)[C@H](Cc1ccc(O)cc1)NC(=O)[C@H](CO)NC(=O)[C@H](Cc1c[nH]c2ccccc12)NC(=O)[C@H](Cc1c[nH]cn1)NC(=O)[C@@H]1CCC(=O)N1)C(=O)N1CCC[C@H]1C(=O)NCC |  | human plasma | 21 days, pH 7.4, 37 °C |  | conversion to leucine | 92.4 ± 6.47%
C[C@@H](O)[C@H](NC(=O)[C@H](CCCCN)NC(=O)[C@H](Cc1c[nH]c2ccccc12)NC(=O)CN)C(=O)N[C@@H](CCCNC(=N)N)C(=O)NC(C)(C)C(=O)N[C@@H](CCCNC(=N)N)C(=O)NC(C)(C)C(=O)N[C@H](C(=O)N[C@@H](CO)C(=O)N[C@@H](Cc1c[nH]cn1)C(=O)N[C@@H](Cc1ccc(O)cc1)C(=O)NCC(=O)O)[C@@H](C)O |  | C57BL/6 mouse, blood | intravenous, 50 mg/kg, 10 h |  | alkaline phosphatase | 100 to 214 U/L
CC(C)[C@H](NC(=O)CNC(=O)[C@H](CCC(N)=O)NC(=O)[C@H](C)N)C(=O)O | severe intensity | human | 20 mg/kg, 3 days, thrice daily dosing |  | subjects with adverse events | 0%

Some of these lines once more:
SMILES | test | test system | conditions | how to read | endpoint | result
O=c1oc2c(O)c(O)ccc2c2cc(O)c(O)cc12 | potentiometric titration | water, extrapolated from methanol/water | 25 °C |  | pKa2 | 8.43
CCN(Cc1ccccc1)C(=O)CCc1nc(CN2CCN(C(=O)Cc3ccc(OC)c(OC)c3)CC2)no1 |  | rat, brain | intravenous, 1 mg/kg, 1 h |  | concentration | 2.4 ng/g
CCCCCCCCCCCC(=O)C(C)C(=O)N1CCC[C@H]1C(=O)NC(C)(C)C(=O)NC(C)(C)C(=O)NC(C)(C)C(=O)N[C@](C)(CC)C(=O)NCCC(=O)N[C@@H](C)C(=O)N[C@](C)(CC)C(=O)N[C@@H](C)C(=O)N[C@@H](CC(C)C)C(=O)N[C@](C)(CC)C(=O)NCCC(=O)N[C@@H](C)C(=O)N[C@](C)(CC)C(=O)NCCC(=O)N[C@@H](C)C(=O)NC(C)(C)C(=O)NC(C)(C)C(=O)NC(C)(C)C(=O)N[C@@H](C)C(=O)N[C@@H](CC(=O)O)C(=O)O (stereo partly shown) | LC-MS | 50% pooled human serum | 40 µM, 12 h, pH 7.5, 37 °C |  | remaining compound | ~27%
